Measured values collected from several papers.
Lines come from different studies, so protocols differ. Values joined by “and” are separate records of one study, mostly repeats; a detail may differ.
Target: cGMP-inhibited 3',5'-cyclic phosphodiesterase 3A (PDE3A, Homo sapiens, UniProt Q14432)

C[C@H](NCc1ccc(-c2ccc(C(F)(F)F)cc2)cc1)C(N)=O  inhibition (enzyme activity; 1 µM, together with: 1.01 µM [3H]cAMP): -7%
CS(C)(=O)=Nc1ccc(-c2ccc(-c3nc4cc(O[C@@H]5CO[C@H]6[C@@H]5OC[C@H]6O)[nH]c4cc3F)cc2)cc1  inhibition (enzyme activity, inhibitor; 10 µM): 6%
O=C(O)c1ccc(-c2nc(-c3ccccc3Cl)c3sccn23)cc1  specific binding (radioligand binding, safety screen panel; 10 µM; reference: control): 68% and 88.4%
Cc1cc(Nc2nc(C[C@@]3(C(=O)O)CCN(Cc4cccc(Cl)c4F)[C@H](C)C3)cc(C)c2F)[nH]n1  inhibition (enzyme activity, inhibitor; 10 µM): -0.09%
CCc1nnc(-c2c(OC)cc(-c3cnc4cc(-c5cnn(C)c5)ccn34)cc2OC)o1  specific binding (10 µM; reference: control): 99.9%
CCN(CC)CCOc1ccc(-c2nnn(Cc3ccc(OC)cc3)c2N)cc1  inhibition (enzyme activity; 10 µM): -1.87%
C/C(=N\OCCCN1CCCCC1)c1ccc(C(F)(F)F)cc1  inhibition (antagonist, FP; 10 µM): 2.17%
Cc1cc(-c2ccc3ccccc3c2)nnc1NCCN1CCN(C)CC1  inhibition (enzyme activity; 10000 nM): 5%

A few entries again:
CCc1nnc(-c2c(OC)cc(-c3cnc4cc(-c5cnn(C)c5)ccn34)cc2OC)o1  specific binding (10 µM; reference: control): 99.9%
